Measurements gathered from unrelated publications.
Numbered parts are unrelated; each lists some results of a single study.

Block 1
Target: Sal-like protein 4, full length isoform A (SALL4, Homo sapiens, UniProt Q9UJQ4, residues 1-1053)
Sequence of UniProt Q9UJQ4 (whole entry, looked up): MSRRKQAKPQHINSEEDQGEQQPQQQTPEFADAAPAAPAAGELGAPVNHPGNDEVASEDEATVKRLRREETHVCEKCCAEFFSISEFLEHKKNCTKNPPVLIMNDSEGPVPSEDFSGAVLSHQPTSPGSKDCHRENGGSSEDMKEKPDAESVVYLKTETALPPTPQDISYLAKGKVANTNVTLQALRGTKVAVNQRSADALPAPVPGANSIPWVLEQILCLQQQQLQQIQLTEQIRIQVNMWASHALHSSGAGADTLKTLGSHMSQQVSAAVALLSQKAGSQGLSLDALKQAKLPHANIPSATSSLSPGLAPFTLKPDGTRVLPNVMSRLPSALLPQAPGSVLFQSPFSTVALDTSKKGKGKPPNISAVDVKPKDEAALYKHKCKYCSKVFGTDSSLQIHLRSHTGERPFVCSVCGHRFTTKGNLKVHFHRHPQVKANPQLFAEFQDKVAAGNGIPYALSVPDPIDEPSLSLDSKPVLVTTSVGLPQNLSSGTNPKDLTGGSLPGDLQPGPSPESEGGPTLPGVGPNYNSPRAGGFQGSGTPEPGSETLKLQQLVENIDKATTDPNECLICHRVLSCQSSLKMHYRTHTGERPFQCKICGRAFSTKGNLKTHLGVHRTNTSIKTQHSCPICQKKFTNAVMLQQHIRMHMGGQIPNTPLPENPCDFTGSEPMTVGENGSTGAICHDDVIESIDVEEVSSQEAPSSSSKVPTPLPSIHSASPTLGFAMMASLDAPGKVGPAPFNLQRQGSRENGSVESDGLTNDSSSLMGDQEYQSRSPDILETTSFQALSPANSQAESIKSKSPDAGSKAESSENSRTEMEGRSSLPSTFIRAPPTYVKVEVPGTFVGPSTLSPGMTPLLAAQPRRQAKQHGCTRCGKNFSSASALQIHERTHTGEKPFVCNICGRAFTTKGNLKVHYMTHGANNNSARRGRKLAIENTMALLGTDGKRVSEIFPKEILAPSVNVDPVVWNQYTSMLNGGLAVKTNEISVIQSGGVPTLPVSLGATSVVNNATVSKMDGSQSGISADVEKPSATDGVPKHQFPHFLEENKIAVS
Method: universal PBM
Form: double-stranded DNA, one strand shown
Sample: in vitro
Concentration: 600 nM
Setting: 8-mer, flanks averaged, mean of replicates
Reading: higher = stronger binding
Sequence	E-score
ACCTGCTG	-0.0112
GAATGGAA	0.0303
AGGTCAAT	0.172
AAGATGGA	0.024
GGTGTTGA	-0.0856
GCATTGCC	-0.119
CTGATGTA	0.123
CAGTAAGA	0.13
GCAGACTA	-0.0186
CTCACCCC	-0.173
CGCCTCTA	-0.0935
CGTTAATA	0.271
ATCTGCCC	-0.279
ATTATTCG	0.372
AGATTCTC	-0.0528
CAGTACCC	-0.191
CTAAATCC	-0.0589
GGTAAAAA	0.154
CATGCCGG	-0.0973
CAGCCCAA	-0.219
CACTAACA	0.107
CTCCAGCC	-0.414
CTGTTGTC	-0.0999
ACAATGGT	0.0508
ATACTCCC	0.0258

Block 2
Target: Interferon regulatory factor 5, full length, phosphomimetic (IRF5, Homo sapiens, UniProt Q13568-2, residues 1-514, K96S/S451D/S453D/S456D/S462D)
Method: protein-binding microarray
Form: double-stranded DNA, one strand shown
Sample: in vitro
Concentration: 250 nM
Setting: 60-bp whole probe
Added: salmon DNA 0.4 mg/ml
Relative to: random background probes
Reading: higher = stronger binding
Shared flanks, not repeated: GCCTAGCAC … GTCTTGATTCGCTTGACGCTGCTG
Sequence	log fluorescence [z-score]
GACGATTTCAGTATCGATACGTGCTAG	8.47
TCAACGAATTAGAAAGAGCAGTGCTAG	0.541
CACGATATCAGTATCGAGACGTGCTAG	3.08
TCATTATGCTCTTTCTAACTGTGCTAG	1.03
GACGGACTGGGGACTGGGGAGGTGCTA	-0.235
TGCAACATCCCAATGGCCCTGTGCTAG	-0.212
GAGGATATCAGTATCGAGACGTGCTAG	2.62
GACGGACTGGTCTATCGGGACGTGCTA	0.0211
TTAGGACTAGGACTGGGTTAGTGCTAG	-0.428
TCAATTTTGGTTTTCATACTGTGCTAG	2.94
TCAACTTTTTTTTTTCCACTGTGCTAG	1.05
TTAGGTTTTGGTCTCGGTTAGTGCTAG	3.13
TTAGATTTCGGGTATCGCTTAGTGCTA	6.07
GACGGTCTCCGACTGCTGACGTGCTAG	-0.766
GACCGTTTCGGACTGGGGACGTGCTAG	2.61
AAAAATGATTGGTTGAACATGTGCTAG	0.46
TTGGCTTTCCTTTATGTCCTGTGCTAG	0.459
ACCAAAATCAAGTCTGGGCTAGTGCTA	0.137
TTAGGACTGGGGGATCGGTTAGTGCTA	0.425

Block 3
Target: Fragile X messenger ribonucleoprotein 1, C-terminal low-complexity region (Fmr1, Mus musculus, UniProt P35922)
Method: RNA Bind-n-Seq
Form: RNA
Sample: in vitro
Concentration: 200 nM
Setting: whole 134-nt RNA, ends assumed
Added: 150 mM LiCl
Relative to: input library
Reading: higher = stronger binding
All molecules: 7-deaza-guanosine replaces G
Shared flanks, not repeated: GGGAGUUCUACAGUCCGACGAUC … UGGAAUUCUCGGGUGUCAAGG
Sequence	log2 enrichment
AGUCCUGUGCUACACAUCGUAUGUACCGAAUCGGGAAAAGGGGAAAAGGGGAAAAGGGAAAGUAUUAUGUUACGCCGUUCGGAUCUGCAC	-0.105
CCUCAAGUCCUGUGCUACACAUCGUAUGUACCGAAUCGGGCGGGGCGGGGCGGAAAGUAUUAUGUUACGCCGUUCGGAUCUGCACUUCCA	-1.22
UCAAGUCCUGUGCUACACAUCGUAUGUACCGAAUCGGGCCGGGCCGGGCCGGGGAAAGUAUUAUGUUACGCCGUUCGGAUCUGCACUUCC	0.587
GCAGGAAGUAAAAACAAAUGGAAAUGCUUCGGAUAGUGGCAGGGGUGGGGCUUGCUAAGGAAAGGGUGGGAUGGGAGUGGGUAAAGAGUU	0.889
AAGUCCUGUGCUACACAUCGUAUGUACCGAAUCGGGCCCGGGCCCGGGGCCCGGGGAAAGUAUUAUGUUACGCCGUUCGGAUCUGCACUU	-2.84
CAAGUCCUGUGCUACACAUCGUAUGUACCGAAUCGGUUUGGGGUUUGGGUUUGGGAAAGUAUUAUGUUACGCCGUUCGGAUCUGCACUUC	-1.27
GUCCUGUGCUACACAUCGUAUGUACCGAAUCGGAAAAAAAGGUUUUUGGUUUUUUUGGAAAGUAUUAUGUUACGCCGUUCGGAUCUGCAC	-2.72
CUCAAGUCCUGUGCUACACAUCGUAUGUACCGAAUCGGCCGGGCCGGGCCGGGGAAAGUAUUAUGUUACGCCGUUCGGAUCUGCACUUCC	0.4

Block 4
Target: RNA binding protein fox-1 homolog 2, RRM domain, GST-SBP tag (RBFOX2, Homo sapiens, UniProt O43251-10, residues 100-194)
Method: RNA Bind-n-Seq
Form: RNA
Sample: in vitro
Concentration: 365 nM
Setting: natural RNA segment, single round, ends assumed
Relative to: no-protein control
Reading: higher = stronger binding
Shared flanks, not repeated: GGGAGUUCUACAGUCCGACGAUC … UGGAAUUCUCGGGUGCCAA
Residues (chain): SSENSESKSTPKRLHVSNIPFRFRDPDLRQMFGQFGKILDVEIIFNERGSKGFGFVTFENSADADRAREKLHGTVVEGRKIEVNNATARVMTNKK
Sequence	RBNS enrichment (R)
GAGGAGGGUUUAUAUACCCCAUGACCCUGCGGCUUCUUGGCGCCUCCUGCCCAUGAGGAUCACAUCCUGUCUCUCCUUGCUUCCAUCUCUCAUCACUGCCCUUGGACUUC	0.549
UCUCUCUACCCAGUGGGCGCUGCUGUUAAGGGGCCAUCUGCUGAAAACGUUUCCCCAGGCCCUGCUGUCUGCCAGGAGUGCCAAGUGUCAACUGUUUACACACAAACUGC	0.342
AUUCAGACAAGAAAACUUUGCUUAAAAGAUUUCAUGUGUGGGAACCACAGUUCCUGGCUGCCUUUCUCCUGUGUAUGUGUAAAUUCCUUAAUAAAUAUUGCAGGGAAGGA	0.647
CCUUAGCCUCGCUGUAGAGACUUCUGUCGCCCUGGGUAGAGUUUAUUUUUUUGAUGGCUAAGCUGUUGCUGACACUGAAAAUAAACUAGGGUUUGGCCUGCCCUAUUUCU	0.429
UGGCAUCGCCCUGUCCUGCCUUGGCCAGAAGCCUGGAGCUUUGGUUUGAGGAGGUAGAGAUAUGUGUAUCCAUAGGAAGAGAUCUGUCAGAACAGGCAGCUGUUGAGCUC	0.336
ACCCACAGAGGUCUGUGCCAGGUGCGCUUCUGCAGGUGGAGCCAAGCUCUCCCUGAGGCCAGAGGCGGGGCCUGGGCCGGGAGCCCAGGGGAAGGCCAGGCUGGACCCCG	0.331
UUUCAAAGCCAGCUAUCUCCUGCACUAGCUGUCUGUGGCCUGUAGAACAAGCUUUUUUCACCAAGCUGGUCUCUGGCCAGGGUGCAGGAAAGUCCACUUCAGCCACCAGG	0.367
CUCCCCUCCCCAAGUAUUUUAGUCCAAGUUUCCUUUAGUUUGAGAACAUAGAUUGUAUCACCCAUAUAUUCUUGAAUACACUUGUUUGGUUUGGUAUUACUUUGACUAUG	2.43

Some of these lines once more (block 4):
Sequence	RBNS enrichment (R)
GAGGAGGGUUUAUAUACCCCAUGACCCUGCGGCUUCUUGGCGCCUCCUGCCCAUGAGGAUCACAUCCUGUCUCUCCUUGCUUCCAUCUCUCAUCACUGCCCUUGGACUUC	0.549
UCUCUCUACCCAGUGGGCGCUGCUGUUAAGGGGCCAUCUGCUGAAAACGUUUCCCCAGGCCCUGCUGUCUGCCAGGAGUGCCAAGUGUCAACUGUUUACACACAAACUGC	0.342
UGGCAUCGCCCUGUCCUGCCUUGGCCAGAAGCCUGGAGCUUUGGUUUGAGGAGGUAGAGAUAUGUGUAUCCAUAGGAAGAGAUCUGUCAGAACAGGCAGCUGUUGAGCUC	0.336
